{"data": "Results gathered from unrelated publications", "note": "Each numbered part is a random draw from the data of one study; scales do not carry over between parts.", "sequence of UniProt Q9P0L2 (whole entry, looked up)": "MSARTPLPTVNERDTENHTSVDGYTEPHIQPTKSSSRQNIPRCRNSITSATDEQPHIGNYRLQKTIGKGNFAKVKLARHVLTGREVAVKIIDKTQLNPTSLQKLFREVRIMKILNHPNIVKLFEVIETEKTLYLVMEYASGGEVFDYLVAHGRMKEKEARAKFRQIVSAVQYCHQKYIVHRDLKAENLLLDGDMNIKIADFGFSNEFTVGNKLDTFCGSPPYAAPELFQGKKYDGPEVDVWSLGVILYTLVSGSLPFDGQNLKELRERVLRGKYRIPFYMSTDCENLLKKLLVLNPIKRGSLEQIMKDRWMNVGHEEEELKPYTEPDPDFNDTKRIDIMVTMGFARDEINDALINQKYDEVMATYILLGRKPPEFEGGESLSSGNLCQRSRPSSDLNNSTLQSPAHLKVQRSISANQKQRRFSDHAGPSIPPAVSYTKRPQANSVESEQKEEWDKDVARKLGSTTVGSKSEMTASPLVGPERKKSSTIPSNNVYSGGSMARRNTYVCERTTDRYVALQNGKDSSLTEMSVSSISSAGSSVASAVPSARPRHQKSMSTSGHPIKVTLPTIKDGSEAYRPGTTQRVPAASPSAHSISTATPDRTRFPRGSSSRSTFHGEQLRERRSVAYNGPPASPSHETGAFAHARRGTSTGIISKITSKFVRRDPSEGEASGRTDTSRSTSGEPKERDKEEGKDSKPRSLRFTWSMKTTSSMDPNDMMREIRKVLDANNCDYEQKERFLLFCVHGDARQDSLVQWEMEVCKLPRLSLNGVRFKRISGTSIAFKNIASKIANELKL", "sequence of UniProt Q92630 (whole entry, looked up)": "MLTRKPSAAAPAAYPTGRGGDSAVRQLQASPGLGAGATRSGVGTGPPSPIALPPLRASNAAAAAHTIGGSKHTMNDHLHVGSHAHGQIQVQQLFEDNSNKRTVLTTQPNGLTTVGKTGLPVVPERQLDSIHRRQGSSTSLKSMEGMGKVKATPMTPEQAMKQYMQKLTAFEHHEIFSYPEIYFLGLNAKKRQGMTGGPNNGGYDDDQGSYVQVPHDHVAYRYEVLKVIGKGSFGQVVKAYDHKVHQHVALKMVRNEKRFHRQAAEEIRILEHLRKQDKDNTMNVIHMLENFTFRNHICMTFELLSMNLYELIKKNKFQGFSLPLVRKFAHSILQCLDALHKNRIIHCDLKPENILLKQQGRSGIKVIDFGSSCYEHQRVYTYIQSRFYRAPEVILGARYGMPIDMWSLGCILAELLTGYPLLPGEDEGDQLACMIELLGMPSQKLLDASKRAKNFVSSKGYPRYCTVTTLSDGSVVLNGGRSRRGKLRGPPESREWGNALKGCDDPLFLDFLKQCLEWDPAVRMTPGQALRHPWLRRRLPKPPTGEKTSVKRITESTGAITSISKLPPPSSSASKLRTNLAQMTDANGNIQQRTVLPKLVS", "sequence of UniProt Q13237 (whole entry, looked up)": "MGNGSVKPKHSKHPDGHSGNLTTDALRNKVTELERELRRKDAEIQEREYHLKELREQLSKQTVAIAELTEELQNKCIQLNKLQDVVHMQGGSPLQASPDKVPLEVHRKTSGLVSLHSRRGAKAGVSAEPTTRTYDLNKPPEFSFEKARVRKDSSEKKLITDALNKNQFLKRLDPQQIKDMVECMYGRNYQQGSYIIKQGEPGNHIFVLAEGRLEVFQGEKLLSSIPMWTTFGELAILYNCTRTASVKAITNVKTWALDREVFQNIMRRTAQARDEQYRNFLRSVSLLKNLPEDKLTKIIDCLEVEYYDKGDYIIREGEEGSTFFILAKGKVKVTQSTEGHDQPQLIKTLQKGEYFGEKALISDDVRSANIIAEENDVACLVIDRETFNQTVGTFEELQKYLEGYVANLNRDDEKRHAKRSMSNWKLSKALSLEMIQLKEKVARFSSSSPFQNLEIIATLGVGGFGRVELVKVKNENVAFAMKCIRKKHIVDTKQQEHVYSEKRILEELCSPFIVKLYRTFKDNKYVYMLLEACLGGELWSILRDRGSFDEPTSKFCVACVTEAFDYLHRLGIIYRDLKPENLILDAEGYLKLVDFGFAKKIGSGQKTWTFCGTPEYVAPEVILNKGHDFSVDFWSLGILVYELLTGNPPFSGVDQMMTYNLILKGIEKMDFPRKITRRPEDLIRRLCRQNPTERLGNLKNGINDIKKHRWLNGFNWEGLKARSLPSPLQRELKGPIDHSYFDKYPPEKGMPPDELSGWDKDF", "sequence of UniProt Q9BX84 (whole entry, looked up)": "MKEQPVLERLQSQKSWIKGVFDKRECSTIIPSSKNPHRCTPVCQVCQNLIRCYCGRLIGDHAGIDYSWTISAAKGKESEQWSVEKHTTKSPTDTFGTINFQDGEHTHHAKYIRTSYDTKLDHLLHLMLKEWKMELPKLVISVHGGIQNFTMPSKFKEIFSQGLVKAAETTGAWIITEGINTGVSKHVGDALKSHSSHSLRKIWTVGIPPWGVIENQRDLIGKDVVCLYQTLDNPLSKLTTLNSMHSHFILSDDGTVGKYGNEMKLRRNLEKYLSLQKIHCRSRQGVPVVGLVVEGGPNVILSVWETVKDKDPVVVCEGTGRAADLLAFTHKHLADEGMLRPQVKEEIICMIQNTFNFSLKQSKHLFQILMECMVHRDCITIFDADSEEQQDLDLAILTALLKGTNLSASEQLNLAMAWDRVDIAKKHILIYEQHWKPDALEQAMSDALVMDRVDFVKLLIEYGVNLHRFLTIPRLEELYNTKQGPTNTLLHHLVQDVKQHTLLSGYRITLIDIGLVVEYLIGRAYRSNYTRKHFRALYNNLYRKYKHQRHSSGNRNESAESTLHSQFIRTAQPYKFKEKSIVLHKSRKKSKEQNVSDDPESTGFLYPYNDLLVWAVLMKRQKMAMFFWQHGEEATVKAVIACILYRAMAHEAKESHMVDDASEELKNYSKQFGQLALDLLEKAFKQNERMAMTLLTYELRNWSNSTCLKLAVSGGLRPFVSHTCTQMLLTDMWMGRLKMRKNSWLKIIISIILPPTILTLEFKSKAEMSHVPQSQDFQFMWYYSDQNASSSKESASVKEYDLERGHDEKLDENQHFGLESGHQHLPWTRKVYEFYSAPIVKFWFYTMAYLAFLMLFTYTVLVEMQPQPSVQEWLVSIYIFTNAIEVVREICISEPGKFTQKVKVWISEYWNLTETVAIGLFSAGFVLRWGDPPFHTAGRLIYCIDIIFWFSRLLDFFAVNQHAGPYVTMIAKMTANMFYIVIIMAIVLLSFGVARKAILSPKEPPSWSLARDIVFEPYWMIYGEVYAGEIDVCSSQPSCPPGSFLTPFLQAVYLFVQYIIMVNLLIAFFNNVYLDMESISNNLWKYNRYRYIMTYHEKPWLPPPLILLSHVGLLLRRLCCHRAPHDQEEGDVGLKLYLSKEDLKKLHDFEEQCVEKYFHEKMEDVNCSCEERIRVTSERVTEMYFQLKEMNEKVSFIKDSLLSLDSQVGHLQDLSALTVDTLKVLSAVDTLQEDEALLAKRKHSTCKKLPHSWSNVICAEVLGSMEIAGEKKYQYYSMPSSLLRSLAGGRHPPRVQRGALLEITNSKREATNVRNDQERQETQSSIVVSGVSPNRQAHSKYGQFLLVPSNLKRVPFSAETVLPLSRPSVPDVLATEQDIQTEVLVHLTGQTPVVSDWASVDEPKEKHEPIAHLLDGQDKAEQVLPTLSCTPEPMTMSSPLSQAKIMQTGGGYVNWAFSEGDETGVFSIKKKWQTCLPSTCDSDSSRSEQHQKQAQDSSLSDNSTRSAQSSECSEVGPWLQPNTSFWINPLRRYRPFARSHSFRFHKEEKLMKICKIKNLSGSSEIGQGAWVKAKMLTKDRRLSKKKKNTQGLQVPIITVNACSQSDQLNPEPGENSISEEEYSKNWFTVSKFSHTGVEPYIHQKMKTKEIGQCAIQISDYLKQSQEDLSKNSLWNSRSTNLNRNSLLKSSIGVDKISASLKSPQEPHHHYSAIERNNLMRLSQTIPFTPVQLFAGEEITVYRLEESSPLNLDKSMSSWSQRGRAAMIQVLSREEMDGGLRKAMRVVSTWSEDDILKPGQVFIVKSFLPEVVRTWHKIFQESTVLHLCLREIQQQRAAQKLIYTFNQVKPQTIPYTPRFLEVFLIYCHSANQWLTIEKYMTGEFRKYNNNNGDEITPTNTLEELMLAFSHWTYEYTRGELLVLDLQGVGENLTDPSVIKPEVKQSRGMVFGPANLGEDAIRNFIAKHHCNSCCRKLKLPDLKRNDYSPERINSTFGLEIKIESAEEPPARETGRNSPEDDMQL", "sequence of UniProt P51956 (whole entry, looked up)": "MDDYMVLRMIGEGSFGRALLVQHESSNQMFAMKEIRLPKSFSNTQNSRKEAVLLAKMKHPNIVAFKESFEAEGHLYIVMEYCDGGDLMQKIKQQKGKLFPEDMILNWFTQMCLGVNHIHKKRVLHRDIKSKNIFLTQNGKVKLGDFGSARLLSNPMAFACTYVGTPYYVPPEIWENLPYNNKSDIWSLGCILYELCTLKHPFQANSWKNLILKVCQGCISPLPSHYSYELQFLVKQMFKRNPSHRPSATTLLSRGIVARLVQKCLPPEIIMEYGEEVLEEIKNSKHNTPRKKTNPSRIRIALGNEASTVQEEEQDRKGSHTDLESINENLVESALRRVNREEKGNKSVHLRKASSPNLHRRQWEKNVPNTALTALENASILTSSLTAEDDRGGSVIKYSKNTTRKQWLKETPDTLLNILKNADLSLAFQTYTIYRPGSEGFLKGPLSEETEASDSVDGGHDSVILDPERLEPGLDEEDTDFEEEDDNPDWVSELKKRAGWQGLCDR", "sequence of UniProt Q15759 (whole entry, looked up)": "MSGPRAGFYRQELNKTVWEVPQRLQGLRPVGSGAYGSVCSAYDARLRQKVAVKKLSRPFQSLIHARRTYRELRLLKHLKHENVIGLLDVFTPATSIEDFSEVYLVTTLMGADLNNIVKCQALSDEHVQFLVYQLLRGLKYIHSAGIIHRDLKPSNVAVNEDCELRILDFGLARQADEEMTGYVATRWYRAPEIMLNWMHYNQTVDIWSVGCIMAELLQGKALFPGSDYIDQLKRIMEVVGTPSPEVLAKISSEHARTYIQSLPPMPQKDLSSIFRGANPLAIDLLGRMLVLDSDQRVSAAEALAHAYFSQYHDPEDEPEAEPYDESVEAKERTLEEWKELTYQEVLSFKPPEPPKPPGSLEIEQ"}
{"data": "Series 1", "SMILES": "CC(C)n1cnc(-c2ccc(F)cc2)c1-c1ncc(C(=O)Nc2ccc(N3CCN(C)CC3)cc2)[nH]1", "technique": "phase 2a clinical trial", "host": "patients with idiopathic pulmonary fibrosis"}
{"assay": "item: benign prostatic hyperplasia", "setting": "30 mg once daily, Grade 3, maximum intensity", "patients with treatment-emergent adverse events [%]": 0}
{"assay": "item: left bundle branch block", "setting": "dose not given, Grade 4, all drug arms", "patients with treatment-emergent adverse events [%]": 0}
{"assay": "item: first degree atrioventricular block", "setting": "30 mg once daily, Grade 3", "patients with treatment-emergent adverse events [%]": 0}
{"assay": "item: carbon dioxide decreased", "setting": "30 mg once daily, Grade 5", "patients with treatment-emergent adverse events [%]": 0}
{"assay": "item: first degree atrioventricular block", "setting": "30 mg once daily, Grade 2", "patients with treatment-emergent adverse events [%]": 0}
{"assay": "item: first degree atrioventricular block", "setting": "60 mg once daily, Grade 5", "patients with treatment-emergent adverse events [%]": 0}
{"assay": "item: lumbar vertebral fracture", "setting": "30 mg once daily, Grade 1, maximum intensity", "patients with treatment-emergent adverse events [%]": 0}
{"assay": "item: investigations (SOC)", "setting": "dose not given, Grade 5, all drug arms total", "patients with treatment-emergent adverse events [%]": 0}
{"data": "Series 2", "Compound": "CC(=O)Nc1c(C(C)=O)c(=O)n(C)c2nc(-c3ccc(Cl)cc3Cl)c(-c3ccc(Cl)cc3)cc12", "concentration": "1 µM"}
{"target": "MARK1 (Homo sapiens, UniProt Q9P0L2)", "assay": "cell-free assay, competition with immobilised ligand", "remaining binding": "100%"}
{"target": "ULK1 (Homo sapiens, UniProt O75385)", "assay": "cell-free assay, competition with immobilised ligand", "remaining binding": "66%"}
{"target": "MAK (Homo sapiens, UniProt P20794)", "assay": "cell-free assay, competition with immobilised ligand", "remaining binding": "100%"}
{"target": "CSNK1G3 (Homo sapiens, UniProt Q9Y6M4)", "assay": "cell-free assay, competition with immobilised ligand", "remaining binding": "100%"}
{"target": "TRPM6 (Homo sapiens, UniProt Q9BX84)", "assay": "cell-free assay, competition with immobilised ligand", "remaining binding": "100%"}
{"target": "CDC42BPG (Homo sapiens, UniProt Q6DT37)", "assay": "competition binding", "remaining binding": "100%"}
{"target": "KIT (Homo sapiens, UniProt P10721, V559D)", "assay": "cell-free assay, competition with immobilised ligand", "remaining binding": "100%"}
{"target": "DYRK2 (Homo sapiens, UniProt Q92630)", "assay": "cell-free assay, competition with immobilised ligand", "remaining binding": "100%"}
{"data": "Series 3", "SMILES": "O=C(c1cc2cc(O)ccc2[nH]1)c1cc2cc(O)ccc2[nH]1", "effect on": "enzyme activity", "mode": "inhibitor", "concentration": "0.5 µM", "reference": "control"}
{"target": "KDR (Homo sapiens, UniProt P35968)", "remaining activity [%]": 69.9}
{"target": "GRK4 (Homo sapiens, UniProt P32298)", "remaining activity [%]": 103}
{"target": "MARK4 (Homo sapiens, UniProt Q96L34)", "remaining activity [%]": 55.3}
{"target": "ROCK1 (Homo sapiens, UniProt Q13464)", "remaining activity [%]": 96.2}
{"target": "NEK3 (Homo sapiens, UniProt P51956)", "remaining activity [%]": 111}
{"target": "PRKG2 (Homo sapiens, UniProt Q13237)", "remaining activity [%]": 80.6}
{"target": "CDC42BPB (Homo sapiens, UniProt Q9Y5S2)", "remaining activity [%]": 96.2}
{"target": "DDR2 (Homo sapiens, UniProt Q16832)", "remaining activity [%]": 95.7}
{"target": "PAK3 (Homo sapiens, UniProt O75914)", "remaining activity [%]": 99.2}
{"target": "Cyclin-dependent kinase 1, with cyclin A (CDK1, Homo sapiens, UniProt P06493)", "remaining activity [%]": 88.2}
{"target": "CLK4 (Homo sapiens, UniProt Q9HAZ1)", "remaining activity [%]": 79.1}
{"target": "MAPK11 (Homo sapiens, UniProt Q15759)", "remaining activity [%]": 95.7}
{"target": "CAMK4 (Homo sapiens, UniProt Q16566)", "remaining activity [%]": 96.5}
{"data": "Series 4", "Compound": "COc1cc(C(=O)N2CCC(N3CCN(C)CC3)CC2)ccc1Nc1ncc2c(n1)N(C)c1ccccc1C(=O)N2C"}
{"target or system": "human PBMC", "assay": "probe labeling, inhibitor, KiNativ profiling, item: ALYATkTLR", "system": "cell lysate", "setting": "1 µM, LYS1 site, together with: ATP acyl-phosphate probe", "inhibition [%]": -0.6}
{"target or system": "human PBMC", "assay": "probe labeling, inhibitor, KiNativ profiling, item: WQGNDIVVkVLK", "system": "cell lysate", "setting": "concentration not given, LYS1 site, together with: ATP acyl-phosphate probe", "inhibition [%]": 7.4}
{"target or system": "PIK3CD human", "assay": "KiNativ profiling", "system": "human PBMC", "setting": "1 µM, ATP site, together with: ATP acyl phosphate probe", "inhibition [%]": 10.7}
{"target or system": "MLKL (human)", "assay": "probe labelling, KiNativ ADP probe", "system": "human PBMC lysate", "setting": "concentration not given, LYS1 labelled site", "inhibition [%]": 17.5}
{"target or system": "mouse NUAK1", "assay": "probe labelling, KiNativ ADP probe", "system": "mouse brain lysate", "setting": "1 µM", "inhibition [%]": 0.9}
{"note": "Excerpt of the above (series 3):"}
{"target": "CDC42BPB (Homo sapiens, UniProt Q9Y5S2)", "remaining activity [%]": 96.2}
{"target": "MAPK11 (Homo sapiens, UniProt Q15759)", "remaining activity [%]": 95.7}
{"target": "KDR (Homo sapiens, UniProt P35968)", "remaining activity [%]": 69.9}
